Experimental data collected from several papers.
Values joined by “and” are separate records of one study, mostly repeats; a detail may differ. ± gives the spread as reported.

O=C(Cc1ccccc1)N[C@H](C(=O)Nc1ccc(C(=O)NO)cc1)c1ccccc1
IC50 (HDAC (HeLa nuclear extract); enzyme activity, inhibitor): 34.6 ± 2.4 nM

pneumocandin K
IC50 (1,3-beta-D-glucan synthase (Candida albicans ATCC 10231); enzyme activity, inhibitor; membrane preparation; 60 min, pH 7.5, 30 °C, together with: UDP-[14C]-glucose 1 mM): 4.99 ± 0.82 µg/mL

N=C(N)c1ccc(OCCCCCOc2ccc(C(=N)N)cc2)cc1
IC50 (acid-sensing ion channel; ion current, whole-cell voltage clamp; mouse hippocampal neurons; holding potential -60 mV, together with: pH 5.8): 38000 nM

pneumocandin B0
IC50 (1,3-beta-D-glucan synthase (Candida albicans ATCC 10231); enzyme activity, inhibitor; membrane preparation; 60 min, pH 7.5, 30 °C, together with: UDP-[14C]-glucose 1 mM): 3.43 ± 1.09 µg/mL

O=C(/C=C/c1ccc2c(=O)n(Cc3ccccc3F)cnc2c1)NO
IC50 (histone deacetylase; enzyme activity, inhibitor; HeLa nuclear extract): 98 ± 2 nM

CCc1ccc(C(=O)NN(C(=O)c2cc(C)cc(C)c2)C(C)(C)C)cc1
IC50 (mAb-19F2 (BALB/c mouse monoclonal antibody); antibody binding, indirect competitive ELISA): > 1 µg/mL

COc1ccc(C(=O)N[C@H](C(=O)Nc2ccc(C(=O)NO)cc2)c2ccccc2)cc1
IC50 (HDAC (HeLa nuclear extract); enzyme activity, inhibitor): 20.5 ± 1.1 nM

C/C(=N\C#N)N(C)Cc1ccc(Cl)nc1
IC50 (mAb-19F2 (BALB/c mouse monoclonal antibody); antibody binding, indirect competitive ELISA): > 1 µg/mL

O=C(/C=C/c1ccc2ncn(CCCl)c(=O)c2c1)NO
IC50 (histone deacetylase; enzyme activity, inhibitor; HeLa nuclear extract): 2385 ± 9 nM

O=C(NO)c1ccc(NC(=O)[C@@H](NC(=O)c2ccc(F)cc2)c2ccccc2)cc1
IC50 (HDAC (HeLa nuclear extract); enzyme activity, inhibitor): 25.5 ± 1.6 nM

NC[C@@H]1O[C@H](O[C@H]2[C@@H](O)[C@H](O[C@@H]3[C@@H](O)[C@H](N)C[C@H](N)[C@H]3O[C@H]3O[C@H](CO)[C@@H](O)[C@H](O)[C@H]3N)O[C@@H]2CO)[C@H](N)[C@@H](O)[C@@H]1O
IC50 (Leishmania tarentolae ribosome; cell-free translation, inhibitor, refers to: EGFP reporter; Leishmania tarentolae S30 extract): 3930 nM and 3900 nM

CCN(Cc1ccc(Cl)nc1)/C(=C/[N+](=O)[O-])NC
IC50 (mAb-19F2 (BALB/c mouse monoclonal antibody); antibody binding, indirect competitive ELISA): > 1 µg/mL

CCn1cnc2cc(/C=C/C(=O)NO)ccc2c1=O
IC50 (histone deacetylase; enzyme activity, inhibitor; HeLa nuclear extract): 68 ± 1 nM

Nc1ncnc2c1ncn2[C@@H]1O[C@H](COP(=O)(O)OP(=O)(O)OP(=O)(O)O)[C@@H](O)[C@H]1O
IC50 (SUR2A entire Q/N mutant/Kir6.2; KATP channel current, inhibitor, inside-out patch clamp; HEK293; without Mg2+): 15000 ± 2600 nM

COc1ccccc1C(=O)N[C@H](C(=O)Nc1ccc(C(=O)NO)cc1)c1ccccc1
IC50 (HDAC (HeLa nuclear extract); enzyme activity, inhibitor): 33.6 ± 2.3 nM

O=C(/C=C/c1ccc2c(=O)n(CC3CCCC3)cnc2c1)NO
IC50 (histone deacetylase; enzyme activity, inhibitor; HeLa nuclear extract): 72 ± 1 nM

pneumocandin J
IC50 (1,3-beta-D-glucan synthase (Candida albicans ATCC 10231); enzyme activity, inhibitor; membrane preparation; 60 min, pH 7.5, 30 °C, together with: UDP-[14C]-glucose 1 mM): 4.26 ± 0.9 µg/mL

O=C(NC(=O)c1c(F)cccc1F)Nc1cc(Cl)c(OC(F)(F)C(F)C(F)(F)F)cc1Cl (centres unmarked)
IC50 (mAb-19F2 (BALB/c mouse monoclonal antibody); antibody binding, indirect competitive ELISA): > 1 µg/mL

O=C(/C=C/c1ccc2c(=O)n(Cc3ccccc3)cnc2c1)NO
IC50 (histone deacetylase; enzyme activity, inhibitor; HeLa nuclear extract): 247 ± 21 nM

CCOC(=O)NCCOc1ccc(Oc2ccccc2)cc1
IC50 (mAb-19F2 (BALB/c mouse monoclonal antibody); antibody binding, indirect competitive ELISA): > 1 µg/mL

O=C(/C=C/c1ccc2ncn(CC3CCCCC3)c(=O)c2c1)NO
IC50 (histone deacetylase; enzyme activity, inhibitor; HeLa nuclear extract): 391 ± 28 nM

Cc1cc(N)c2ccccc2[n+]1CCCCCCCCCC[n+]1c(C)cc(N)c2ccccc21
IC50 (CNG channel CNGA1-P, Bos taurus; cGMP-activated current, blocker, inside-out patch clamp; pH 7.2, room temperature, 0 mV holding, steps to +20 mV, together with: cGMP 2 mM): 80 ± 0.1 nM

CCCC(CCC)C(=O)N[C@H](C(=O)Nc1ccc(C(=O)NO)cc1)c1ccccc1
IC50 (HDAC (HeLa nuclear extract); enzyme activity, inhibitor): 22.8 ± 1.8 nM

CCCn1cnc2ccc(/C=C/C(=O)NO)cc2c1=O
IC50 (histone deacetylase; enzyme activity, inhibitor; HeLa nuclear extract): 925 ± 30 nM

CC(C)C[C@H](NC(=O)[C@@H](NC(=O)N[C@H](C(=O)OC(C)(C)C)C(C)C)C(C)C)C(=O)N[C@@H](CC(C)C)C(=O)[C@@]1(C)CO1
IC50 (rabbit 26S proteasome beta2; trypsin-like activity; 30 min, 37 °C, together with: Ac-RLR-AMC): > 300 nM

O=C(/C=C/c1ccc2c(=O)n(Cc3ccc(F)cc3)cnc2c1)NO
IC50 (histone deacetylase; enzyme activity, inhibitor; HeLa nuclear extract): 48 nM

Cc1c(-c2ccc(C(=N)N)cc2)oc(-c2ccc(C(=N)N)cc2)c1C
IC50 (NQO2; protection from toxicity; MDA-MB-468; 3 h, together with: CB1954 100 µM plus NRH 100 µM): 18000 ± 16000 nM

CC(C)C[C@H](NC(=O)[C@@H](NC(=O)N[C@H](C(=O)NCc1ccccc1)C(C)C)C(C)C)C(=O)N[C@@H](CC(C)C)C(=O)[C@@]1(C)CO1
IC50 (rabbit 26S proteasome beta2; trypsin-like activity; 30 min, 37 °C, together with: Ac-RLR-AMC): > 300 nM

Nc1cc2c(cc1[N+](=O)[O-])[nH]c1c(-c3ccccc3)nccc12
IC50 (NQO2; protection from toxicity; MDA-MB-468; 3 h, together with: CB1954 100 µM plus NRH 100 µM): 2100 ± 1200 nM

O=C(NO)c1ccc(NC(=O)[C@@H](NS(=O)(=O)c2ccc(Cl)cc2)c2ccccc2)cc1
IC50 (HDAC (HeLa nuclear extract); enzyme activity, inhibitor): 126 nM and 125 nM

CN=C([S-])N/N=C(C)/C(C)=N/NC([S-])=NC.[Cu+2]
IC50 (human α-synuclein; peroxynitrite-induced nitration, inhibitor, ELISA; together with: α-synuclein 1 µM): 1000 nM

CC(C)(C)c1ccc(S(=O)(=O)N[C@H](C(=O)Nc2ccc(C(=O)NO)cc2)c2ccccc2)cc1
IC50 (HDAC (HeLa nuclear extract); enzyme activity, inhibitor): 105 nM and 106 nM

COc1cc(C(=O)OCCCN2CCCN(CCCOC(=O)c3cc(OC)c(OC)c(OC)c3)CC2)cc(OC)c1OC
IC50 (nucleoside transporters; gemcitabine flux; mouse, jejunum in situ perfusion; together with: gemcitabine 5 µM): 212000 nM

CC(C)N1C(=O)N(c2ccccc2)CS/C1=N\C(C)(C)C
IC50 (mAb-19F2 (BALB/c mouse monoclonal antibody); antibody binding, indirect competitive ELISA): 0.00181 µg/mL

O=C(NO)c1ccc(NC(=O)[C@@H](NS(=O)(=O)c2c(F)cccc2F)c2ccccc2)cc1
IC50 (HDAC (HeLa nuclear extract); enzyme activity, inhibitor): 60.2 ± 4.7 nM

Repeated from above:
pneumocandin B0
IC50 (1,3-beta-D-glucan synthase (Candida albicans ATCC 10231); enzyme activity, inhibitor; membrane preparation; 60 min, pH 7.5, 30 °C, together with: UDP-[14C]-glucose 1 mM): 3.43 ± 1.09 µg/mL

COc1cc(C(=O)OCCCN2CCCN(CCCOC(=O)c3cc(OC)c(OC)c(OC)c3)CC2)cc(OC)c1OC
IC50 (nucleoside transporters; gemcitabine flux; mouse, jejunum in situ perfusion; together with: gemcitabine 5 µM): 212000 nM

CCn1cnc2cc(/C=C/C(=O)NO)ccc2c1=O
IC50 (histone deacetylase; enzyme activity, inhibitor; HeLa nuclear extract): 68 ± 1 nM

Cc1cc(N)c2ccccc2[n+]1CCCCCCCCCC[n+]1c(C)cc(N)c2ccccc21
IC50 (CNG channel CNGA1-P, Bos taurus; cGMP-activated current, blocker, inside-out patch clamp; pH 7.2, room temperature, 0 mV holding, steps to +20 mV, together with: cGMP 2 mM): 80 ± 0.1 nM
